# Assay results from different studies.
# Each line is one published result; not all experiments were run side by side. ± marks the error that the study gave.
# CHRM4: Muscarinic acetylcholine receptor M4 (CHRM4, Homo sapiens, UniProt P08173)
# Chain of UniProt P08173 (whole entry, looked up): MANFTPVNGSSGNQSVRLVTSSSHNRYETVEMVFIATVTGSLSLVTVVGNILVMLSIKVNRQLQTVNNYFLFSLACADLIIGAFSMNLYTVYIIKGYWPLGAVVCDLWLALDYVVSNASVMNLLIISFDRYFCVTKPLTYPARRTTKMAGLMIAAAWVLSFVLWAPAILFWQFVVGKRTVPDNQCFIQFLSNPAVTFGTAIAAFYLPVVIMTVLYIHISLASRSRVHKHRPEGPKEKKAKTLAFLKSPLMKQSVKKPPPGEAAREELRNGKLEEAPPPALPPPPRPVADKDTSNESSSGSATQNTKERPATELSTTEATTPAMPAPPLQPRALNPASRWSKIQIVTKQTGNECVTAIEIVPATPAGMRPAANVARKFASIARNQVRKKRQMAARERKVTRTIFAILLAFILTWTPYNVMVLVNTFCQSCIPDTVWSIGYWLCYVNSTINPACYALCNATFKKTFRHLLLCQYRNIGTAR
# Kir3.1/Kir3.2: Kir3.1/Kir3.2 (Homo sapiens, UniProt P48051+P48549)
# Chain of UniProt P48549 (whole entry, looked up): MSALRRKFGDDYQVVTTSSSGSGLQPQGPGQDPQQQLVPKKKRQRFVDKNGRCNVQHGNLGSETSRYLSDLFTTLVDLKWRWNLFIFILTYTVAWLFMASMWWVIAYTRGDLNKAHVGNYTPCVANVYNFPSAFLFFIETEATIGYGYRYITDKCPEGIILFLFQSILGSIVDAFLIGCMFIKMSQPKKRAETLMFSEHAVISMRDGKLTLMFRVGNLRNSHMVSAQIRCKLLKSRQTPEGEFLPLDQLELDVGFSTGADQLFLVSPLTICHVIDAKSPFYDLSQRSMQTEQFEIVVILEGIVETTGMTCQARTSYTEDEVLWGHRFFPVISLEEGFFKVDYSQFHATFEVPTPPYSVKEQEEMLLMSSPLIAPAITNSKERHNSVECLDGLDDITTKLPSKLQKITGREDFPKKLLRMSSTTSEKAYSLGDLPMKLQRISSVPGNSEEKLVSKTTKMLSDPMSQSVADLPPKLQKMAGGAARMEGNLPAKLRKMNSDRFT
# Chain of UniProt P48051 (whole entry, looked up): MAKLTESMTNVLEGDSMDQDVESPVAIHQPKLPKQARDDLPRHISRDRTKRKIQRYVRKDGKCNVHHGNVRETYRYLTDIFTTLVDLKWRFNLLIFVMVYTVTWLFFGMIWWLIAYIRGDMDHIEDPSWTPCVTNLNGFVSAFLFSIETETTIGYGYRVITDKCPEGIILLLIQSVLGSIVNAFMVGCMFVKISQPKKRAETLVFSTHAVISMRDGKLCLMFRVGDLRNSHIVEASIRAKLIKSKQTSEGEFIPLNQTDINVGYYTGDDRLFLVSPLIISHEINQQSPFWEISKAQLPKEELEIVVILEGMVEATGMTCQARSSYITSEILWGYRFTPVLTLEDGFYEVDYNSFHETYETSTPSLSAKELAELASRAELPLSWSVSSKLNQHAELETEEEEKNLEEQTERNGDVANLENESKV
# Chain of UniProt Q8TDU9 (whole entry, unmodified, looked up): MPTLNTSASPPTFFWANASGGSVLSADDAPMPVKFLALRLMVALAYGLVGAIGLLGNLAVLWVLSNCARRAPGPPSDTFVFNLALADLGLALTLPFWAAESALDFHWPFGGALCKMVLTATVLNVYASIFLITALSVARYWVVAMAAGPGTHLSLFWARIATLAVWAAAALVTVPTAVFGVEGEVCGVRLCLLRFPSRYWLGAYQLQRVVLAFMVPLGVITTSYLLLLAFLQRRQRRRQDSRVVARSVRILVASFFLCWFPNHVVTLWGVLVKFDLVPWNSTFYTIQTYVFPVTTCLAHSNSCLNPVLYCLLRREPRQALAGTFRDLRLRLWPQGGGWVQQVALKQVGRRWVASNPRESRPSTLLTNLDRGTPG
# Chain of UniProt P17706 (whole entry, looked up): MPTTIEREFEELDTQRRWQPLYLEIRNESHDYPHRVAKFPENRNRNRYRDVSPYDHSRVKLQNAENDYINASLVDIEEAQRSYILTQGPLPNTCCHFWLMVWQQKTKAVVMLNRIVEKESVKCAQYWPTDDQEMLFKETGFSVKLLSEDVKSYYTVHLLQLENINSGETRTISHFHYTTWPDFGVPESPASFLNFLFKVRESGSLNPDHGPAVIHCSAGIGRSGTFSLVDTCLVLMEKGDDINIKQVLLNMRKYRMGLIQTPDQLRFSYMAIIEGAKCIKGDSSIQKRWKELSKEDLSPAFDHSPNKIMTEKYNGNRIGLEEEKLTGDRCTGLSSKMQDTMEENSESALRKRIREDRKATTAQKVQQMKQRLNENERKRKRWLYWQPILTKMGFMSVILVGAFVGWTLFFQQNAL
# Chain of UniProt P48546 (whole entry, looked up): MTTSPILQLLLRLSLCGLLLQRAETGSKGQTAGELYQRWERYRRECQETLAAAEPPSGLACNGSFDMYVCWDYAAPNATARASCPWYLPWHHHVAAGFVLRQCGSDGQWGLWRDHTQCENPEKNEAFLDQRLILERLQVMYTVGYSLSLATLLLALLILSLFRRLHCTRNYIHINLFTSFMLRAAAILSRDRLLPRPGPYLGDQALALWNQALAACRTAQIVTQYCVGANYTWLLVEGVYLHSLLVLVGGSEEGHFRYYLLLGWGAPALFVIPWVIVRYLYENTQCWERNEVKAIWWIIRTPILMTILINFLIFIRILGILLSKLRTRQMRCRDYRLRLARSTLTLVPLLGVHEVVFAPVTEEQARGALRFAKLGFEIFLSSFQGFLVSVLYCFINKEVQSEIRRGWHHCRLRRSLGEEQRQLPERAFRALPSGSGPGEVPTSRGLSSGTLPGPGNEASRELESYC
# Chain of UniProt P37231 (whole entry, looked up): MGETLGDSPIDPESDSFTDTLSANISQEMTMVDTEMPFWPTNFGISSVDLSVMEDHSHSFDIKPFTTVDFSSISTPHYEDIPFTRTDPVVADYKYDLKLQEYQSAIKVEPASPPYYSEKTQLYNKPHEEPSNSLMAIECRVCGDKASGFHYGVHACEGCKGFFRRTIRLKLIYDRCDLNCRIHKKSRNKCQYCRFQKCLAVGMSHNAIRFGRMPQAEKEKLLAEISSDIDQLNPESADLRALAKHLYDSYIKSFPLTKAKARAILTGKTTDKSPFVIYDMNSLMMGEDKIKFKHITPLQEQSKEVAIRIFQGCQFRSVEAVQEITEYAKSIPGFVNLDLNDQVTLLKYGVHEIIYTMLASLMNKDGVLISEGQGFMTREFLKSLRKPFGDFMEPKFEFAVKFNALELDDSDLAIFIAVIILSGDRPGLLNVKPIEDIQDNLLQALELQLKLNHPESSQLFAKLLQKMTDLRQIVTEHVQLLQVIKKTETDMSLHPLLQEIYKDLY
# Chain of UniProt P32245 (whole entry, looked up): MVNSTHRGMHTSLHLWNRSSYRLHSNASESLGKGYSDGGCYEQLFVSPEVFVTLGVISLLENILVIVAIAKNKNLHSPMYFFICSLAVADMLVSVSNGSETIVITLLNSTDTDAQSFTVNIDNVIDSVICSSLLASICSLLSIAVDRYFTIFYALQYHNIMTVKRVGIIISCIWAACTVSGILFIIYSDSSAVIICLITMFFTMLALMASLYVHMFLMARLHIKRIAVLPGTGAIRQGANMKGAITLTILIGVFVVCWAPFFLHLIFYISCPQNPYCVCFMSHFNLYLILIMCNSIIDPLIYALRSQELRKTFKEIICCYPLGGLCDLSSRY
# Chain of UniProt P43220 (whole entry, looked up): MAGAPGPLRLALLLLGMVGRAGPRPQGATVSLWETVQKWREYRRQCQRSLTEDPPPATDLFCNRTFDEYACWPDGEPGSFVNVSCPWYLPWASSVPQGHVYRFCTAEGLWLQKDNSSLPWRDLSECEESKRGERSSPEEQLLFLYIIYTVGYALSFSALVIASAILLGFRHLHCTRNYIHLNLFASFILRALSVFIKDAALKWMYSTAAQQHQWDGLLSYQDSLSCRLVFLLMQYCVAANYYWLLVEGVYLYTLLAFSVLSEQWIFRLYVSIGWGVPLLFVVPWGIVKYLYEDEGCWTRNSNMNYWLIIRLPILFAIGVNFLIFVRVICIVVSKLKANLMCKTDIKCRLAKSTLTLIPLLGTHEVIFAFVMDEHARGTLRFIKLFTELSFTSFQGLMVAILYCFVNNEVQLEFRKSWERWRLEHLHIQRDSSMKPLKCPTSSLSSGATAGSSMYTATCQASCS
# Chain of UniProt P32214 (whole entry, looked up): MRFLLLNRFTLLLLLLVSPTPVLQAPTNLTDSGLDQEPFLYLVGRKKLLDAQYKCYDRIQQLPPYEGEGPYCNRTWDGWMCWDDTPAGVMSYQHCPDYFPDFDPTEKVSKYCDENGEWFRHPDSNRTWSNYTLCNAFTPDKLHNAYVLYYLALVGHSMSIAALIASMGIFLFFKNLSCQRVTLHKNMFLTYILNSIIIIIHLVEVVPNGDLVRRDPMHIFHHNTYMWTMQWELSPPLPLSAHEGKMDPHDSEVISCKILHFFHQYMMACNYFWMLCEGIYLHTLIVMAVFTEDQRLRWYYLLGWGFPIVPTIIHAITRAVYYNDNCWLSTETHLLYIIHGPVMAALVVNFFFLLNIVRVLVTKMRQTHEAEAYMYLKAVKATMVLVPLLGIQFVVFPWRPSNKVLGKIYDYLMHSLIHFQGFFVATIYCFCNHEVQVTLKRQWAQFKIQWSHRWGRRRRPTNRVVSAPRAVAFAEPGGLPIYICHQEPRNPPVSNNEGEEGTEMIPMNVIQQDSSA
# Chain of UniProt Q9JJ73 (whole entry, looked up): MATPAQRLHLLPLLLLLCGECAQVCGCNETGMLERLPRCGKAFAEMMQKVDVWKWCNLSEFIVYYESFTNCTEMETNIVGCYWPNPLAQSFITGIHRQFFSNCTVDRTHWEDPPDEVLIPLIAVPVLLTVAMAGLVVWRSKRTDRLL
Structure (SMILES),target,assay,system,setting,scale,Emax
CCCC[C@H](NC(C)=O)C(=O)N[C@H]1CCC(=O)NCCC[C@@H](C(=O)N[C@@H](C(=O)N2CCC[C@@H]2C(N)=O)C(C)C)NC(=O)[C@H](Cc2c[nH]c3ccccc23)NC(=O)[C@H](CCCNC(=N)N)NC(=O)[C@@H](Cc2ccc(F)cc2)NC(=O)[C@@H]2CCCN2C1=O,"Melanocortin receptor 4 (MC4R, Homo sapiens, UniProt P32245)","cAMP, agonist",CHO-K1,,,90%
CC[C@H](C)[C@@H]1NC(=O)[C@H](Cc2ccccc2)NC(=O)[C@H](CCC(=O)O)NC(=O)[C@H](CCCNC(=N)N)NC(=O)CNC(=O)[C@@H](NC(=O)[C@H](CC(C)C)NC(=O)[C@H](CCCNC(=N)N)NC(=O)[C@@H](NC(=O)CNC(=O)[C@H](Cc2ccc(O)cc2)NC(=O)[C@@H]2CCCN2C(=O)[C@H](C)NC(=O)[C@H](C)NC(=O)[C@@H](N)CCCNC(=N)N)C(C)C)CSSC[C@@H]2NC(=O)[C@@H](NC(=O)[C@H](CO)NC(=O)[C@H](CO)NC(=O)[C@H](CO)NC(=O)[C@H](CC(C)C)NC(=O)CNC(=O)[C@H](C)NC(=O)[C@H](CC(C)C)NC(=O)[C@@H](NC(=O)[C@@H](N)CC(=O)O)C(C)C)CSSC[C@H](NC(=O)CNC(=O)[C@H](Cc3c[nH]c4ccccc34)NC(=O)[C@H](CCCCN)NC2=O)C(=O)N[C@@H](CO)C(=O)N[C@@H](CCCCN)C(=O)N[C@@H](CO)C(=O)N[C@@H](CCC(=O)O)C(=O)N[C@@H]([C@@H](C)CC)C(=O)N[C@@H](CO)C(=O)N[C@@H](CO)C(=O)N[C@@H](CC(C)C)C(=O)N[C@H](C(=O)O)CSSC[C@@H](C(=O)NCC(=O)NCC(=O)N[C@@H](CO)C(=O)N[C@@H](CCCNC(=N)N)C(=O)N[C@@H](Cc2c[nH]c3ccccc23)C(=O)O)NC(=O)[C@H]([C@@H](C)O)NC(=O)[C@H](Cc2ccccc2)NC(=O)[C@H]([C@@H](C)CC)NC(=O)[C@H](C(C)C)NC(=O)[C@H](C)NC(=O)[C@H](CCCNC(=N)N)NC1=O,"Relaxin-3 receptor 2 (RXFP4, Homo sapiens, UniProt Q8TDU9, D104A)",,HEK-293T,,reference: wild type,77.9 ± 6.09%
C=CCn1c(=O)c2ccccc2n2c(SCC(=O)NCc3ccc(NC(C)=O)cc3)nnc12,CHRM4,"receptor activation, agonist",,"concentration not given, 16 h",,120 ± 4%
CNC(=N)NCCC[C@H](NC(=O)[C@H](CC(C)C)NC(=O)NNC(=O)[C@H](Cc1ccccc1)NC(=O)[C@@H](NC(=O)[C@H](CC(N)=O)NC(=O)[C@@H]1C[C@@H](O)CN1C(=O)[C@@H](Cc1ccc(O)cc1)NC(C)=O)[C@@H](C)O)C(=O)N[C@@H](Cc1c[nH]c2ccccc12)C(N)=O,"KiSS-1 receptor (KISS1R, Homo sapiens, UniProt Q969F8, D242A)","inositol phosphate, agonist",HEK293,,,63.7%
CC1(C)C[C@@H](Nc2cccc(-c3sc(C(=O)O)c(OCC(=O)O)c3Cl)c2)CCN1S(=O)(=O)Cc1cccc(NC(=O)CN2CCC(c3ccc4c(c3)oc(=O)n4C3CCC(=O)NC3=O)CC2)c1 (stereo partly drawn),"Tyrosine-protein phosphatase non-receptor type 2 (PTPN2, Homo sapiens, UniProt P17706)","protein degradation, degrader, HiBiT",B16-F10 cells,24 h,,10%
O=C(COc1cc(Cl)ccc1Cl)Nc1cc(C2CC2)nn1C1CCOCC1,Kir3.1/Kir3.2,"thallium flux, activator",HEK293,,reference: standard compound,82%
CC(C)C[C@H](NC(=O)[C@H](CCCN)NC(=O)CNC(=O)[C@@H](NC(=O)[C@H](C)NC(=O)[C@@H]1CSCSC[C@H](NC(=O)CC[C@H](N)C(=O)O)C(=O)N[C@@H](CC(N)=O)C(=O)N[C@@H]([C@@H](C)O)C(=O)N[C@@H](C)C(=O)N[C@@H]([C@@H](C)O)C(=O)N1)[C@@H](C)O)C(=O)N[C@@H](C)C(=O)N[C@@H](CCC(=O)O)C(=O)N[C@@](C)(Cc1ccccc1)C(=O)N[C@@H](CC(C)C)C(=O)N[C@H](C(=O)N[C@@H](CCCNC(=N)N)C(=O)N[C@@H](CO)C(=O)N[C@@H](CO)C(=O)N[C@@H](CC(N)=O)C(=O)N(C)[C@@H](CC(N)=O)C(=O)N[C@@H](Cc1ccccc1)C(=O)NCC(=O)N1CCC[C@H]1C(=O)N[C@@H](CCCCNC(=O)CC[C@H](NC(=O)CC[C@H](NC(=O)CCCCCCCCCCCCCCCCCCC(=O)O)C(=O)O)C(=O)O)C(=O)N[C@@H](CC(C)C)C(=O)N1CCC[C@H]1C(=O)N1CCC[C@H]1C(=O)N[C@H](C(=O)N[C@@H](CCC(=O)O)C(=O)N[C@H](C(=O)NCC(=O)N[C@@H](CO)C(=O)N[C@@H](CC(N)=O)C(=O)N[C@H](C(=O)N[C@@H](Cc1ccc(O)cc1)C(N)=O)[C@@H](C)O)C(C)C)[C@@H](C)O)C(C)C,"Amylin receptor AMY3; CALCR/RAMP3 (Rattus norvegicus, UniProt P32214+Q9JJ73)","cAMP, agonist",UMUC3,,,> 80%
CCc1cc(NC(=O)COc2ccc(C(F)(F)F)cc2C(F)(F)F)n(C2CCC(F)(F)CC2)n1,Kir3.1/Kir3.2,"thallium flux, activator",HEK293,,reference: standard compound,72%
CCCCCCCCCCCCCCCC(=O)N[C@@H](CCC(=O)NCCCC[C@H](NC(=O)[C@H](CCC(N)=O)NC(=O)[C@H](Cc1c[nH]cn1)NC(=O)[C@@H](NC(=O)[C@H](CCCCN)NC(=O)[C@H](CC(=O)O)NC(=O)[C@H](CCSC)NC(=O)[C@H](C)NC(=O)[C@@H](NC(=O)[C@H](CO)NC(=O)[C@H](Cc1ccc(O)cc1)NC(=O)[C@H](CC(=O)O)NC(=O)[C@H](CO)NC(=O)[C@@H](NC(=O)[C@H](Cc1ccccc1)NC(=O)[C@@H](NC(=O)CNC(=O)[C@H](CCC(=O)O)NC(=O)[C@H](C)NC(=O)[C@H](Cc1ccc(O)cc1)NCC(F)(F)F)[C@@H](C)O)[C@@H](C)CC)[C@@H](C)CC)[C@@H](C)CC)C(=O)N[C@@H](CC(=O)O)C(=O)N[C@@H](Cc1ccccc1)C(=O)N[C@H](C(=O)N[C@@H](CC(N)=O)C(=O)N[C@@H](Cc1c[nH]c2ccccc12)C(=O)N[C@@H](CC(C)C)C(=O)N[C@@H](CC(C)C)C(=O)N[C@@H](C)C(=O)N[C@@H](CCC(N)=O)C(=O)N[C@@H](CCCCN)C(=O)NCC(=O)N[C@@H](CCCCN)C(=O)N[C@@H](CCCCN)C(=O)N[C@@H](CC(N)=O)C(=O)N[C@@H](CC(=O)O)C(=O)N[C@@H](Cc1c[nH]c2ccccc12)C(=O)N[C@@H](CCCCN)C(=O)N[C@@H](Cc1c[nH]cn1)C(=O)N[C@@H](CC(N)=O)C(=O)N[C@H](C(=O)N[C@H](C(=O)N[C@@H](CCC(N)=O)C(=O)O)[C@@H](C)O)[C@@H](C)CC)C(C)C)C(=O)O,"Gastric inhibitory polypeptide receptor (GIPR, Homo sapiens, UniProt P48546)","reporter gene, agonist, luciferase",HEK293,,,100%
O=C(COc1cccc(Cl)c1Cl)Nc1cc(C2CC2)nn1C1CCOCC1,Kir3.1/Kir3.2,"thallium flux, activator",HEK293,,reference: standard compound,70%
CCc1cc(O)cc2c(/C=N/NC(=N)NCCc3ccc(Cl)cc3)c[nH]c12,"Relaxin-3 receptor 2 (RXFP4, Homo sapiens, UniProt Q8TDU9, V122A)",,HEK-293T,,reference: wild type,77.7 ± 9.69%
C=CCn1c(=O)c2ccccc2n2c(SCC(=O)NC3CC3)nnc12,CHRM4,"receptor activation, agonist",,"concentration not given, 16 h",,120 ± 1%
Cc1c(C)n(Cc2ccc(-c3ccccc3C(=O)O)cc2)c2ccc(C(=O)N[C@@H](C)c3ccc([N+](=O)[O-])cc3)cc12,"Peroxisome proliferator-activated receptor gamma (PPARG, Homo sapiens, UniProt P37231)","reporter gene, agonist, luciferase",COS-1,,,0%
O=C(COc1ccc(Cl)cc1Cl)Nc1cc(C2CC2)nn1C1CCOCC1,Kir3.1/Kir3.2,"thallium flux, activator",HEK293,,reference: standard compound,81%
COc1cc(C2C(NC(=O)c3ccc(NC(=O)OC(C)(C)C)cc3)(C(=O)O)C(c3ccc(OC(=O)c4cccs4)c(OC)c3)C2(NC(=O)c2ccc(NC(=O)OC(C)(C)C)cc2)C(=O)O)ccc1OC(=O)c1cccs1 (stereo not drawn),"Glucagon-like peptide 1 receptor, with β-arrestin 2 (GLP1R, Homo sapiens, UniProt P43220)","β-arrestin 2 recruitment, agonist, BRET",,,reference: GLP-1 response,2.76 ± 2.54%
